Published values from different studies.
Protocols differ between the studies behind these lines. ± gives the spread as reported.
RIPK2: Receptor-interacting serine/threonine-protein kinase 2 (RIPK2, Homo sapiens, UniProt O43353)
Sequence of UniProt O43353 (whole entry, looked up): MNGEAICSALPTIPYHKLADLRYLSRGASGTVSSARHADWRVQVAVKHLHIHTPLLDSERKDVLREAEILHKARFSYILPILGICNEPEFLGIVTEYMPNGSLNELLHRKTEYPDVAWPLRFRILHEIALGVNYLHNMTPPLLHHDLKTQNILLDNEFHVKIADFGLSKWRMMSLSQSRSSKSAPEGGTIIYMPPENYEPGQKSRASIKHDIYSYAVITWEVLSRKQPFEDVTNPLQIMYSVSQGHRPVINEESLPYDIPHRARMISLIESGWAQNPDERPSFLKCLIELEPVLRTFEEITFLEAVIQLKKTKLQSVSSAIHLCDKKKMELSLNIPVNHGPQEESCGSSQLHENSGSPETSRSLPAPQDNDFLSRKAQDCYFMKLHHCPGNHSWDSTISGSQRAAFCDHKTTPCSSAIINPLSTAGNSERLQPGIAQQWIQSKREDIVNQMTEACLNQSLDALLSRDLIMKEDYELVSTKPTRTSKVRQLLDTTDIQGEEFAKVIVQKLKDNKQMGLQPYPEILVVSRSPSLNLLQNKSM
Sequence of UniProt P48067 (whole entry, unmodified, looked up): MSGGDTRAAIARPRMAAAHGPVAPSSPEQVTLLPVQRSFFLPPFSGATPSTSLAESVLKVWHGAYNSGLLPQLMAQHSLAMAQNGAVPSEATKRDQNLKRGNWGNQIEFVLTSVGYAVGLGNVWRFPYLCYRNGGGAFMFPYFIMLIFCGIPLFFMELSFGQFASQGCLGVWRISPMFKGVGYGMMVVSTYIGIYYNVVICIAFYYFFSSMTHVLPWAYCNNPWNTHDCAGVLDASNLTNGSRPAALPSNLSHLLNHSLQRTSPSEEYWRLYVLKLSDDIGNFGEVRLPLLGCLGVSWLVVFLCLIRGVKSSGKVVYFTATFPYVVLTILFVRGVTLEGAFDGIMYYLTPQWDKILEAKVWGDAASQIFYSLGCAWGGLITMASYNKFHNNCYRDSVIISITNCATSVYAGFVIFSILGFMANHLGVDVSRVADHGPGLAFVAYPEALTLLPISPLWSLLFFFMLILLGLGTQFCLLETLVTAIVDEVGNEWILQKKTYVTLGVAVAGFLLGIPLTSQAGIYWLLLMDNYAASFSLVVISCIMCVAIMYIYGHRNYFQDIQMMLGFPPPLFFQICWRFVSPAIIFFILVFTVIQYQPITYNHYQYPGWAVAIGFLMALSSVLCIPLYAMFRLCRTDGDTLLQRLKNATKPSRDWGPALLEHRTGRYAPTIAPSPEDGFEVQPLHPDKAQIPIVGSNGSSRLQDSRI
Sequence of UniProt Q16816 (whole entry, looked up): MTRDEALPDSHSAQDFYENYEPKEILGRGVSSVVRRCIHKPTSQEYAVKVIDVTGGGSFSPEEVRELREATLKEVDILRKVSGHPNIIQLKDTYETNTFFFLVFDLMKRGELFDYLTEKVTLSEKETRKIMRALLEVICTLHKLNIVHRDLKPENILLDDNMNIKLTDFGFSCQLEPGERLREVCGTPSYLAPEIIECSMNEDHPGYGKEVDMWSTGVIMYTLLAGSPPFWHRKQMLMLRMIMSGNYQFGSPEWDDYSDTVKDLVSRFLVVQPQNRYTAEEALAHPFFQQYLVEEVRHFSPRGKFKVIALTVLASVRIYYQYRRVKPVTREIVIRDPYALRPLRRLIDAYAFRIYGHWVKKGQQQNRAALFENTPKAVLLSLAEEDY
Sequence of UniProt Q92947 (whole entry, looked up): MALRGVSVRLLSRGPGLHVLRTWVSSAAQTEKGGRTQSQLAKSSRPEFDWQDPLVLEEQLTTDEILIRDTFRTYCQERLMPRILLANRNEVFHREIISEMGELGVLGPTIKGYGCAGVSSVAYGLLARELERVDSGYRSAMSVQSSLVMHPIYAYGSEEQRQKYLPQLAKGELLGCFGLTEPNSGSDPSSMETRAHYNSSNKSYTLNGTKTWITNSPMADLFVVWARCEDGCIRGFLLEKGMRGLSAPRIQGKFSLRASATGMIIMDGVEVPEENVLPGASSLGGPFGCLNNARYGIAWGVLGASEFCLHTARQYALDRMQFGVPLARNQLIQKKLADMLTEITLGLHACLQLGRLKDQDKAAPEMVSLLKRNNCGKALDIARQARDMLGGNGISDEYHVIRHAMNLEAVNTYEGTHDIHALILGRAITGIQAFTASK
Sequence of UniProt Q8TD08 (whole entry, looked up): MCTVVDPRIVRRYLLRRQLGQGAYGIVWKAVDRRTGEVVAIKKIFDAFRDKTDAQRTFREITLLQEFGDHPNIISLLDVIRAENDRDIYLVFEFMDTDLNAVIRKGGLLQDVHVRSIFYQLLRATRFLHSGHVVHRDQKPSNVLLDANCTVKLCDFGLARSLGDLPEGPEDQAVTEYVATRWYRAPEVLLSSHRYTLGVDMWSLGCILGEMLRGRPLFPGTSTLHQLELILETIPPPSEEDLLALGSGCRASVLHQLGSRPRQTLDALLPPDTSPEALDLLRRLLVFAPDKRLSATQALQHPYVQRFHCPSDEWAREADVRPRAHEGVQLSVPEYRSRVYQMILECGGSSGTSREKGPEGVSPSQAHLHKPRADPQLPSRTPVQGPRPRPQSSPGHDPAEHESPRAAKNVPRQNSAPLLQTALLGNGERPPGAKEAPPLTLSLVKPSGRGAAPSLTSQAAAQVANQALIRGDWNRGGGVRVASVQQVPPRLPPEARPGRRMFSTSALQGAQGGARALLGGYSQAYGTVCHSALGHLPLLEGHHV
Sequence of UniProt Q9UIK4 (whole entry, looked up): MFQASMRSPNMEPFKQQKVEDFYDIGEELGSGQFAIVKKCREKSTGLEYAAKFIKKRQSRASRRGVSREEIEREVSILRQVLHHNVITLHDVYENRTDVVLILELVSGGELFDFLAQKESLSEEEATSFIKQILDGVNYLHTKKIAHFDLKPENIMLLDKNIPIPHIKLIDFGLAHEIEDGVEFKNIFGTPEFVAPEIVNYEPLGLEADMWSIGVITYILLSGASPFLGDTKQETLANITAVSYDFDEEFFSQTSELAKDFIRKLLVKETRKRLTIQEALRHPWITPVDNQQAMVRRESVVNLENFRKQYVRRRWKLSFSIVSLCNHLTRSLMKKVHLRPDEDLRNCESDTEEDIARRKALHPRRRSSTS
Sequence of UniProt Q2M2I8 (whole entry, looked up): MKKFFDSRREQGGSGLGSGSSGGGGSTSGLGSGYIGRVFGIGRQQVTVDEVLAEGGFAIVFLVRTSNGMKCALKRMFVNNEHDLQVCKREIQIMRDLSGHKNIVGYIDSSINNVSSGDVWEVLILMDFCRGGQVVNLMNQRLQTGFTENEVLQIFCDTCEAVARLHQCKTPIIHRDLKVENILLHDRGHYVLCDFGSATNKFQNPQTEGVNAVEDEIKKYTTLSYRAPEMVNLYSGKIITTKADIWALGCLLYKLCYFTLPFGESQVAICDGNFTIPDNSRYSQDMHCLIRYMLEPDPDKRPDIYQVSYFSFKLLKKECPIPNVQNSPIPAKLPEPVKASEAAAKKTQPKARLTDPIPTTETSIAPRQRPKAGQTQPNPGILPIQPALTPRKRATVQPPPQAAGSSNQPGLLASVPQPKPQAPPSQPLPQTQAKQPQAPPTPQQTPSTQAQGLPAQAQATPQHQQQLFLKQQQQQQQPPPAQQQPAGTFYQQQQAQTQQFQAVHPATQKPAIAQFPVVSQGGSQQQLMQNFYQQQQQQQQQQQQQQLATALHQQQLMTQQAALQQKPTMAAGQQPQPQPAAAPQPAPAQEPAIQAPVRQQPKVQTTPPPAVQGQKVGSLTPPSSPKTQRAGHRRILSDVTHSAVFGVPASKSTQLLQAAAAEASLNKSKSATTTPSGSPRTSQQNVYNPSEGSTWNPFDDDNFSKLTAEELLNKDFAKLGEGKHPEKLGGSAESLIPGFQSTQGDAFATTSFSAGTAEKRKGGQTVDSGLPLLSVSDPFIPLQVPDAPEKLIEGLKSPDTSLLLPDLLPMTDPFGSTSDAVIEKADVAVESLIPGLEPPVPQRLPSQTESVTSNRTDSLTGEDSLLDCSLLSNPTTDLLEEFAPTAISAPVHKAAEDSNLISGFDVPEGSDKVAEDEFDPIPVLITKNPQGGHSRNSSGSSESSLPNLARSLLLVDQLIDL
Sequence of UniProt P22310 (whole entry, looked up): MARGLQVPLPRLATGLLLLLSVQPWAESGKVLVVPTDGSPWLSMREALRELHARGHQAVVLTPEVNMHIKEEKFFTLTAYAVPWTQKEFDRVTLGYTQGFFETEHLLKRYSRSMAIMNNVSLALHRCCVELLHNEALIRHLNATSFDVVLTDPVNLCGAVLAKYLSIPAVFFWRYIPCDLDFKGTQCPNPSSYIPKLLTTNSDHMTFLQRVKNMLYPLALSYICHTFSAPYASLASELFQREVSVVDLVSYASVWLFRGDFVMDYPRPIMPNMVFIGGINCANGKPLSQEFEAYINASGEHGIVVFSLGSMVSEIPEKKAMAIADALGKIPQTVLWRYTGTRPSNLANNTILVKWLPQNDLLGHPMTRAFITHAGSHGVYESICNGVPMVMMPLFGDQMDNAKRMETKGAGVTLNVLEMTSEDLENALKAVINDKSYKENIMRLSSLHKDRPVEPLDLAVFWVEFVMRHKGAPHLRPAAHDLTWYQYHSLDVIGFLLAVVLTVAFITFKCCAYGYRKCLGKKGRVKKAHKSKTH

With COc1cccc(-c2ccc(NC(=O)C3=C(C(=O)O)CCC3)c(F)c2)c1 the metabolic activity was 0.68 ± 0.19 (COS-7; WST-8; 10 µM, 24 h, 0.1% DMSO, unit not given; reference: vehicle control).
With COc1cc(F)ccc1-c1ncnc(Nc2cccc(C[S@](C)(=N)=O)c2)n1 the remaining activity was 99% (DAPK2 (Homo sapiens, UniProt Q9UIK4); kinase activity; 10 µM, added: 10 µM ATP).
For O=C(NC1CCC1)c1ccc2nc(-c3cccc(NS(=O)(=O)NCCN4CCCCC4)c3)cn2c1, the remaining activity was 87% (AAK1 (Homo sapiens, UniProt Q2M2I8); enzyme activity; 10 µM).
The remaining activity of O=C(O)c1ccc(Nc2ncc3c(n2)-c2ccc(Cl)cc2C(c2c(F)cccc2F)=NC3)cc1 is reported as 141% (human JNK2α2(h); kinase activity; 1 µM).
The remaining activity of CNCC(=O)O is reported as 88.6% (SLC6A9 (Homo sapiens, UniProt P48067, G373S); glycine uptake, inhibitor; 3000 µM, added: [3H]glycine; reference: no inhibitor).
With O=C1NC(=O)/C(=C/c2ccc(-c3ccc(F)cc3O)o2)S1 the remaining activity was 61% (PHKG1 (Homo sapiens, UniProt Q16816); enzyme activity; 10 µM).
For COc1cc(-c2cncc3c2CN(C)Cc2cc(N4CCNCC4)ccc2-3)cc(OC)c1OC, the remaining activity was 27% (RIPK2; kinase activity; 1 µM, human enzyme, added: ATP 10 µM; reference: DMSO control).
O=C(O)c1cc(O)c2c(c1)C(=O)c1cccc(O)c1C2=O has a cell viability of 106 ± 19.4% (HepaRG co-cultured with HK-2; MTT; 16.67 µM, 48 h; reference: untreated control).
With COc1cc(Nc2ncc3c(n2)-c2ccc(Cl)cc2C(c2c(F)cccc2OC)=NC3)ccc1C(=O)O the remaining activity was 46% (FGFR3; kinase activity; 1 µM).
The remaining activity of CNc1ncc2c(/C=C/C(=O)N3CCC(OC)CC3)nn(Cc3cccc(C(F)(F)F)c3)c2n1 is reported as 95% (MAPK15 (Homo sapiens, UniProt Q8TD08); kinase activity, inhibitor; 1 µM; reference: untreated control).
C[C@@H]1CC[C@@]2(OC1)O[C@H]1C[C@H]3[C@@H]4CC[C@H]5C[C@@H](O)CC[C@]5(C)[C@H]4CC(=O)[C@]3(C)[C@H]1[C@@H]2C gave a remaining activity of ~25% (UGT1A4 (Homo sapiens, UniProt P22310); glucuronidation, inhibitor; human liver microsomes; 10 µM, added: probe substrate 0.5 µM; reference: no inhibitor).
The remaining activity of C=CC(=O)N1CCC[C@@H](n2nc(-c3ccc(Oc4ccccc4)cc3)c3c(N)ncnc32)C1 is reported as 115% (Glutaryl-CoA dehydrogenase, mitochondrial (Homo sapiens, UniProt Q92947); 0.1 µM).
Cc1cc(Nc2cc(N3CCN(C)CC3)nc(Sc3ccc(NC(=O)C4CC4)cc3)n2)[nH]n1 gave a remaining activity of 98% (RIPK2; kinase activity, KinaseProfiler; 0.03 µM, species human; reference: control).
With COc1cc2c(c(O)c1OC)C(=O)c1c(cc(C)c(O[C@@H]3O[C@H](CO)[C@@H](O)[C@H](O)[C@H]3O)c1OC)C2=O the cell viability was 81.4 ± 19.9% (HepaRG co-cultured with HK-2; MTT; 66.67 µM, 24 h; reference: untreated control).
For CCN(CC)Cc1cc(Nc2ccnc3cc(Cl)ccc23)ccc1O, the necrotic cells was 0.35 ± 0.07 (COS-7; 30 µM, 24 h, 0.1% DMSO, unit not given; reference: vehicle control).

For quick reference, copied from above:
With COc1cc2c(c(O)c1OC)C(=O)c1c(cc(C)c(O[C@@H]3O[C@H](CO)[C@@H](O)[C@H](O)[C@H]3O)c1OC)C2=O the cell viability was 81.4 ± 19.9% (HepaRG co-cultured with HK-2; MTT; 66.67 µM, 24 h; reference: untreated control).
